# Measured values from different studies.
# Protocols differ between the studies behind these lines. Values joined by “and” are separate records of one study, mostly repeats; a detail may differ. ± gives the spread as reported.
SMILES,tested on,test,test system,conditions,how to read,measurement,value
C#CCN1C(=O)C(CC#C)(C(=O)OCC)Oc2ccccc21 (centres unmarked),HaCaT,"cell growth or viability, CCK-8",,"3.13 µM, 72 h",,inhibition,0.34%
CSCC[C@H](NC(=O)[C@@H](NC(=O)[C@H](CCC(N)=O)NC(=O)[C@H](CO)NC(=O)[C@@H](N)C(C)C)[C@@H](C)O)C(=O)N[C@@H](CCCNC(=N)N)C(=O)N[C@@H](CCC(N)=O)C(=O)N[C@H](C(=O)N[C@@H](C)C(=O)N[C@H](C(=O)N1CCC[C@H]1C(=O)N[C@@H](CC(C)C)C(=O)N[C@@H](CC(C)C)C(=O)N[C@@H](Cc1c[nH]c2ccccc12)C(=O)N[C@@H](Cc1ccccc1)C(=O)N[C@@H](Cc1c[nH]c2ccccc12)C(=O)N[C@H](C(=O)NCC(=O)N[C@@H](CO)C(=O)N[C@@H](CC(C)C)C(=O)NCCOCCOCCOCCOCCOCCOCCOCCOCCOCCOCCOCCOCCC(=O)N[C@@H](CS)C(N)=O)[C@@H](C)O)C(C)C)[C@@H](C)O,HCC366 lung adenosquamous carcinoma,"cell binding, phage binding, refers to: output/input phage",,"10 min, 37 °C",baseline: control phage,selectivity ratio,8.5 ± 4
O=C1NC2(CC2)COc2ncc(F)cc2[C@H]2COCCN2c2ccn3ncc1c3n2,,,"Sprague-Dawley rat, female, heart","oral, 5 mg/kg/day, 4 weeks dosing, end of recovery",,organ-to-body weight ratio,0.365 ± 0.031%
O=C(O)c1ccc(-c2nc(-c3ccccc3Cl)c3sccn23)cc1,HEL,"flow cytometry, refers to: surface CD71",,0.1 mM,higher = more expression,mean fluorescence intensity,52900 a.u.
C=CCN1C(=O)C(CC=C)(C(=O)OCC)Oc2cc(F)ccc21 (centres unmarked),HaCaT,"cell growth or viability, CCK-8",,"100 µM, 72 h",,inhibition,0.92%
Cc1cc(Oc2nc(N3CC[C@@H](c4ccncc4)C3)ncc2F)[nH]n1,J82,cell proliferation,bladder cancer,,,IC50,95.5 µM
COc1ccccc1-c1ccncc1C(=O)Nc1nnc(OCc2ccc(Cl)cc2)s1,RPE-1 BRCA1 WT parental,,,"4 µM, average of 2 runs",baseline: untreated,colony survival,71.6%
CC(C)C[C@H](NC(=O)[C@H](CC(=O)O)NC(=O)CNC(=O)[C@@H](N)CCCNC(=N)N)C(=O)N[C@@H](C)C(=O)N[C@H](C(=O)N[C@@H](CC(C)C)C(=O)N[C@@H](CCCNC(=N)N)C(=O)N[C@@H](CCC(N)=O)C(=O)N[C@@H](CC(C)C)C(=O)N[C@@H](C)C(=O)N[C@@H](CCC(N)=O)C(=O)N[C@@H](CCC(=O)O)C(=O)N[C@@H](CC(=O)O)C(=O)NCC(=O)N[C@H](C(=O)N[C@H](C(=O)NCC(=O)N[C@H](C(=O)N[C@@H](CCCNC(=N)N)C(=O)NCCOCCOCCOCCOCCOCCOCCOCCOCCOCCOCCOCCOCCC(=O)N[C@@H](CS)C(N)=O)C(C)C)C(C)C)C(C)C)[C@@H](C)O,H358 lung adenocarcinoma,"cell binding, phage binding, refers to: output/input phage",,"10 min, 37 °C",baseline: control phage,selectivity ratio,130 ± 19
CC(C)CC(O)(CC(C)C)c1cn(C(=O)N2CCCC2)nn1,mouse T-cells,"SILAC proteomics, refers to: Fbxo7",,"1 nM, 6 h, single peptides, unit not given",baseline: DMSO,protein level,1.06 and 1.13
CC(C)(C)C(=O)OCOP(=O)(OCOC(=O)C(C)(C)C)C1CCCN(O)C1=O (centres unmarked),NCI-60 cell line panel,,,,,Log10TGI mean,-4.97 log M
CN(C)C(=O)c1cncc(-c2cnc3[nH]cc(-c4cc(OS(=O)(=O)F)ccc4C#N)c3c2)c1,Ba/F3 BCR-ABL T315I,cell proliferation,,72 h,,GI50,> 1 µM

# Some of these lines once more:
SMILES,tested on,test,test system,conditions,how to read,measurement,value
CC(C)CC(O)(CC(C)C)c1cn(C(=O)N2CCCC2)nn1,mouse T-cells,"SILAC proteomics, refers to: Fbxo7",,"1 nM, 6 h, single peptides, unit not given",baseline: DMSO,protein level,1.06 and 1.13
